Published values of several laboratories.
Lines come from different studies, so protocols differ. Several values in a cell are separate wells, animals, samples, runs or records. ± gives the spread as reported.

SMILES | tested on | assay | test system | conditions | how to read | quantity | value
CC(C)C[C@H](NC(=O)CNC(=O)[C@H](CCC(N)=O)NC(=O)[C@H](CC(C)C)NC(=O)[C@H](CC(C)C)NC(=O)[C@H](CCCNC(=N)N)NC(=O)[C@H](CCC(N)=O)NC(=O)[C@H](CC(C)C)NC(=O)[C@H](CCCNC(=N)N)NC(=O)[C@H](C)NC(=O)CNC(=O)[C@H](CCC(=O)O)NC(=O)[C@H](CCCNC(=N)N)NC(=O)[C@H](CC(C)C)NC(=O)[C@H](CCCNC(=N)N)NC(=O)[C@H](CO)NC(=O)[C@H](CC(C)C)NC(=O)[C@H](CCC(=O)O)NC(=O)[C@H](CO)NC(=O)[C@@H](NC(=O)[C@H](Cc1ccccc1)NC(=O)[C@@H](NC(=O)CNC(=O)[C@H](CC(=O)O)NC(=O)C(C)(C)NC(=O)[C@@H](N)Cc1c[nH]cn1)[C@@H](C)O)[C@@H](C)O)C(=O)N[C@@H](CC(C)C)C(=O)N[C@@H](CCC(N)=O)C(=O)NCC(=O)N[C@@H](CC(C)C)C(=O)N[C@H](C(=O)NCC(=O)N[C@@H](CCCCNC(=O)COCCOCCNC(=O)COCCOCCNC(=O)CC[C@H](NC(=O)CCCCCCCCCCCCCCCCC(=O)O)C(=O)O)C(N)=O)C(C)C | – | – | DIO C57BL/6J mice | sc, 300 nmol/kg twice daily, 8 days, not significant | – | pancreas weight increase | 36%
C/C(=N\OCCCN1CCCCC1)c1ccc(C(F)(F)F)cc1 | – | – | C57BL/6 mouse, brain | intravenous, 5 mg/kg, 4 h | – | brain concentration | 1280 ± 301 ng/g
CN1Cc2cc(Cl)ccc2-n2c(nnc2C2CCN(c3cccc([18F])n3)CC2)C1 | – | – | C57BL/6 mouse male, adrenal gland | intravenous, 3.7 MBq, 60 min | – | tissue uptake | 7.05 ± 3.48 %ID/g
CC[C@H](C)[C@H](NC(=O)CN)C(=O)N[C@@H](CCCNC(=N)N)C(=O)N[C@@H](CCCCN)C(=O)N[C@@H](Cc1c[nH]c2ccccc12)C(=O)N[C@@H](Cc1ccccc1)C(=O)N[C@@H](CCCCN)C(=O)N[C@@H](CCCCN)C(=O)N[C@@H](C)C(=O)N[C@@H](C)C(=O)N[C@@H](Cc1c[nH]cn1)C(=O)N[C@H](C(=O)NCC(=O)N[C@@H](CCCCN)C(=O)N[C@@H](CCC(=O)O)C(=O)N[C@H](C(=O)NCC(=O)N[C@@H](CCCCN)C(=O)N[C@H](C(=O)N[C@@H](C)C(=O)N[C@@H](CC(C)C)C(=O)N[C@@H](CC(N)=O)C(=O)N[C@@H](C)C(=O)N[C@@H](CS)C(=O)N[C@@H](CC(C)C)C(=O)O)C(C)C)C(C)C)C(C)C | – | – | zebrafish embryos 4 hpf, E3 medium | 1 h | – | acute toxic concentration | 5 µM
N=C(N)NCCC[C@@H](NC(=O)[C@H](N)Cc1c[nH]c2ccccc12)C(=O)N[C@H](CCCCN)C(=O)N[C@H](Cc1c[nH]c2ccccc12)C(=O)N[C@H](CCCNC(=N)N)C(=O)N[C@H](CCCCN)C(=O)N[C@H](Cc1c[nH]c2ccccc12)C(=O)N[C@H](CCCNC(=N)N)C(=O)N[C@H](CCCCN)C(=O)N[C@H](Cc1c[nH]c2ccccc12)C(=O)N[C@H](CCCNC(=N)N)C(=O)N[C@H](CCCCN)C(N)=O | – | – | mouse | intraperitoneal, 20 mg/kg single dose, day 3 | – | survival | 100%
CCCCCCCCCCCCCCCC(=O)N[C@@H](CCC(=O)NCCOCCOCCC(=O)NCCOCCOCCC(=O)NCCCC[C@H](NC(=O)[C@H](CC(=O)O)NC(=O)[C@H](CC(C)C)NC(=O)[C@H](Cc1ccc(O)cc1)NC(=O)[C@H](CCCCN)NC(=O)[C@H](CO)NC(=O)[C@H](Cc1ccc(O)cc1)NC(=O)[C@H](CC(=O)O)NC(=O)[C@H](CO)NC(=O)[C@@H](NC(=O)[C@H](Cc1ccccc1)NC(=O)[C@@H](NC(=O)CNC(=O)[C@H](CCC(N)=O)NC(=O)[C@@H](CO)NC(=O)[C@@H](N)Cc1c[nH]cn1)[C@@H](C)O)[C@@H](C)O)C(=O)N[C@@H](CCCNC(=N)N)C(=O)N[C@@H](CCCNC(=N)N)C(=O)N[C@@H](C)C(=O)N[C@@H](CCC(N)=O)C(=O)N[C@@H](CC(=O)O)C(=O)N[C@@H](Cc1ccccc1)C(=O)N[C@H](C(=O)N[C@@H](CCC(N)=O)C(=O)N[C@@H](Cc1c[nH]c2ccccc12)C(=O)N[C@@H](CC(C)C)C(=O)N[C@@H](CC(C)C)C(=O)N[C@@H](CC(N)=O)C(=O)N[C@H](C(=O)NCC(=O)NCC(=O)N1CCC[C@H]1C(=O)N[C@@H](CO)C(=O)N[C@@H](CO)C(=O)NCC(=O)N[C@@H](C)C(=O)N1CCC[C@H]1C(=O)N1CCC[C@H]1C(=O)N1CCC[C@H]1C(=O)N[C@@H](CO)C(N)=O)[C@@H](C)O)C(C)C)C(=O)O | – | – | rhesus monkey, plasma | subcutaneous, 60 µg/kg, single dose | – | AUC(0-inf) | 314 ng·h/mL
CC[C@H](C)[C@H](NC(=O)[C@H](CCCCN)NC(=O)CNC(=O)[C@H](CC(C)C)NC(=O)[C@H](Cc1ccccc1)NC(=O)[C@H](CCCCN)NC(=O)[C@H](CO)NC(=O)[C@H](Cc1ccccc1)NC(=O)[C@H](Cc1c[nH]c2ccccc12)NC(=O)[C@H](CCC(N)=O)NC(=O)[C@@H](NC(=O)[C@H](Cc1ccccc1)NC(=O)CCCCCNC(=O)CN1CCN(CC(=O)O)CCN(CC(=O)O)CCN(CC(=O)O)CC1)C(C)C)C(=O)N[C@@H](CCC(=O)O)C(=O)N1CCC[C@H]1C(=O)N[C@@H](CC(=O)O)C(=O)N[C@H](C(=O)N[C@@H](CO)C(=O)N[C@@H](CCC(N)=O)C(=O)N[C@H](C(=O)N[C@@H](CCC(N)=O)C(=O)N[C@@H](CC(=O)O)C(=O)N1CCC[C@H]1C(=O)N[C@@H](CC(N)=O)C(=O)N[C@@H](CC(=O)O)C(=O)N[C@@H](CCC(N)=O)C(=O)N[C@@H](Cc1ccc(O)cc1)C(=O)N[C@@H](CCC(=O)O)C(=O)N1CCC[C@H]1C(=O)N[C@@H](Cc1ccccc1)C(=O)O)C(C)C)C(C)C [copper-64 labelled] | – | – | C57BL/6 mice, male, naive, skeletal muscle | 1 h | – | tissue uptake | 1.17 ± 0.3 %ID/g
CSCC[C@H](NC(=O)[C@@H](NC(=O)[C@H](CC(C)C)NC(=O)[C@@H](NC(=O)[C@H](Cc1c[nH]cn1)NC(=O)CCCCCNC(=O)[C@H](CCCNC(=N)N)NC(=O)[C@H](CCCNC(=N)N)NC(=O)[C@H](CCCNC(=N)N)NC(=O)[C@H](CCC(N)=O)NC(=O)[C@H](CCCNC(=N)N)NC(=O)[C@H](CCCNC(=N)N)NC(=O)[C@H](CCCCN)NC(=O)[C@H](CCCCN)NC(=O)[C@H](CCCNC(=N)N)NC(=O)CNC(=O)[C@@H](N)Cc1ccc(O)cc1)C(C)C)C(C)C)C(=O)N[C@@H](CS)C(=O)N[C@@H](C)C(=O)N[C@H](C(N)=O)[C@@H](C)O | – | – | C57BL/6J mice | Alzet osmotic pump, 3 mg/kg, 8 weeks | relative to: leukocytes | Seg | 13% and 17% and 8%
O=C1NC2(CC2)COc2ncc(F)cc2[C@H]2COCCN2c2ccn3ncc1c3n2 | – | – | Sprague-Dawley rat, male, brain | oral, 5 mg/kg/day, 4 weeks, end of treatment | – | organ-to-body weight ratio | 0.505 ± 0.033%
N#[11C]c1ccc(-c2csc(NN=C3CCCC3)n2)cc1 | – | – | C57BL/6 mice, male, spleen | intravenous, 3 MBq, 60 min | – | radioactivity uptake | 1.67 ± 0.65 %ID/g
C[C@H](O)[C@@H](NC(=O)[C@H]1CCCN1C(=O)[C@@H](CCCCN)NC(=O)[C@@H](CO)NC(=O)[C@@H](Cc1ccc(O)cc1)NC(=O)[C@@H](CC(N)=O)NC(=O)CCOCCOCCOCCNC(=O)CN1CCN(CC(=O)O)CCN(CC(=O)O)CCN(CC(=O)O)CC1)C(=O)N[C@H](CC(=O)O)C(=O)N[C@H](CCCNC(=N)N)C(=O)N[C@H](CCC(N)=O)C(=O)N[C@H](Cc1ccc(O)cc1)C(=O)N[C@H](Cc1c[nH]cn1)C(=O)N[C@H](Cc1ccccc1)C(N)=O [copper-64 labelled] | – | – | C57BL/6J mice, thymus | intravenous, 1.85 MBq, 1.333 h, radiolabelled | – | tissue uptake | 0.15 ± 0.01 %ID/g
CC(C)[C@@H]1NC(=O)CNC(=O)[C@H](CC(N)=O)NC(=O)[C@H](CCCNC(=N)N)NC(=O)[C@H](Cc2ccc(O)cc2)NC(=O)[C@H](C(C)C)NC(=O)[C@@H](NC(=O)[C@@H](NC(=O)[C@H](CC(N)=O)NC(=O)[C@H](Cc2c[nH]c3ccccc23)NC(=O)[C@H](C)NC(=O)[C@H](Cc2ccccc2)NC(=O)CNC(=O)[C@H](CCCCN)NC(=O)[C@H](Cc2ccccc2)NC(=O)[C@H](Cc2ccccc2)NC(=O)[C@H](CCCCN)NC(=O)OCC2c3ccccc3-c3ccccc32)C(C)C)CSSC[C@@H](C(=O)N[C@@H](Cc2c[nH]cn2)C(=O)N[C@@H](CCCNC(=N)N)C(=O)N[C@@H](CCCNC(=N)N)C(=O)N[C@@H](C)C(=O)N[C@@H](CC(N)=O)C(N)=O)NC(=O)[C@H](C(C)C)NC(=O)[C@H](CCCNC(=N)N)NC1=O | – | – | ICR mice, serum | intraperitoneal, 10 mg/kg, day 5 | relative to: AST over ALT | AST/ALT ratio | 0.58 ± 0.03
CC1(C)C(=O)N(c2ccc(C#N)c(C(F)(F)F)c2)C(=S)N1c1ccc(C(N)=O)c(F)c1 | – | – | human, male, plasma | oral, 40 mg, single dose, fasting | – | AUC(0-t) | 68000 ± 9560 ng·h/mL
CC(C)=CCC/C(C)=C\CCn1cc(CC(C)(P(=O)(O)O)P(=O)(O)O)nn1 | – | PAMPA | phosphate buffer | 5 µg/mL, 5 h, room temperature | – | Papp | 0.054 ± 0.006 ×10⁻⁶ cm/s
Cc1c(-c2ccc(N3CCc4cccc(C(=O)Nc5nc6ccccc6s5)c4C3)nc2C(=O)O)cnn1CC12CC3CC(CC(C3)C1)C2 | – | – | anesthetized cynomolgus monkeys, plasma | intravenous bolus, 5.0 mg/kg, 120 min | – | plasma concentration | 1700 ng/mL and 4700 ng/mL
Cc1ccc(N2C[C@@H]3C[C@H]2CN3C)cc1C(=O)N[C@H](C)c1cc(-c2cnn(C)c2)nc2ccccc12 | Vero E6 | – | – | 125 µM | – | viability | 2.77%
CC(C)NCCCn1c(Sc2cc3c(cc2I)OCO3)nc2c(N)ncnc21 | – | – | cancer patients, tumour biopsy | intravenous, single dose above 180 mg/m^2, 24 h | – | tumour concentration | > 5 µM
Cc1ccc(OC[C@@H]2CCCN2C)cc1C(=O)N[C@H](C)c1cc(-c2cnn(C)c2)nc2ccccc12 | African green monkey cells | – | – | 7.812 µM | – | viability | 95.3%
CCCC[C@H]1C(=O)N(C)[C@@H](CCCC)C(=O)N[C@@H](CCCNC(=O)CN2CCN(CC(=O)O)CCN(CC(=O)O)CCN(CC(=O)O)CC2)C(=O)N[C@H](C(=O)NCC(N)=O)CSCC(=O)N[C@@H](Cc2ccc(O)cc2)C(=O)N(C)[C@@H](C)C(=O)N[C@@H](CC(N)=O)C(=O)N2CCC[C@H]2C(=O)N[C@@H](Cc2c[nH]cn2)C(=O)N[C@@H](CC(C)C)C(=O)N(C)CC(=O)N[C@@H](Cc2c[nH]c3ccccc23)C(=O)N[C@@H](CO)C(=O)N[C@@H](Cc2c[nH]c3ccccc23)C(=O)N1C [gallium-68 labelled] | – | – | NOD/SCID mice, CHO-hPD-L1 xenograft, bone | 60 min, PBS pretreatment | – | tissue uptake | 1.65 ± 0.5 %ID/g

Some of these lines once more:
SMILES | tested on | assay | test system | conditions | how to read | quantity | value
CCCCCCCCCCCCCCCC(=O)N[C@@H](CCC(=O)NCCOCCOCCC(=O)NCCOCCOCCC(=O)NCCCC[C@H](NC(=O)[C@H](CC(=O)O)NC(=O)[C@H](CC(C)C)NC(=O)[C@H](Cc1ccc(O)cc1)NC(=O)[C@H](CCCCN)NC(=O)[C@H](CO)NC(=O)[C@H](Cc1ccc(O)cc1)NC(=O)[C@H](CC(=O)O)NC(=O)[C@H](CO)NC(=O)[C@@H](NC(=O)[C@H](Cc1ccccc1)NC(=O)[C@@H](NC(=O)CNC(=O)[C@H](CCC(N)=O)NC(=O)[C@@H](CO)NC(=O)[C@@H](N)Cc1c[nH]cn1)[C@@H](C)O)[C@@H](C)O)C(=O)N[C@@H](CCCNC(=N)N)C(=O)N[C@@H](CCCNC(=N)N)C(=O)N[C@@H](C)C(=O)N[C@@H](CCC(N)=O)C(=O)N[C@@H](CC(=O)O)C(=O)N[C@@H](Cc1ccccc1)C(=O)N[C@H](C(=O)N[C@@H](CCC(N)=O)C(=O)N[C@@H](Cc1c[nH]c2ccccc12)C(=O)N[C@@H](CC(C)C)C(=O)N[C@@H](CC(C)C)C(=O)N[C@@H](CC(N)=O)C(=O)N[C@H](C(=O)NCC(=O)NCC(=O)N1CCC[C@H]1C(=O)N[C@@H](CO)C(=O)N[C@@H](CO)C(=O)NCC(=O)N[C@@H](C)C(=O)N1CCC[C@H]1C(=O)N1CCC[C@H]1C(=O)N1CCC[C@H]1C(=O)N[C@@H](CO)C(N)=O)[C@@H](C)O)C(C)C)C(=O)O | – | – | rhesus monkey, plasma | subcutaneous, 60 µg/kg, single dose | – | AUC(0-inf) | 314 ng·h/mL
